{"data": "Experimental data collected from several papers", "HCRTR1": "Orexin/Hypocretin receptor type 1 (HCRTR1, Homo sapiens, UniProt O43613)", "note": "Lines come from different studies, so protocols differ. ± marks the error that the study gave.", "chain of UniProt O43613 (whole entry, looked up)": "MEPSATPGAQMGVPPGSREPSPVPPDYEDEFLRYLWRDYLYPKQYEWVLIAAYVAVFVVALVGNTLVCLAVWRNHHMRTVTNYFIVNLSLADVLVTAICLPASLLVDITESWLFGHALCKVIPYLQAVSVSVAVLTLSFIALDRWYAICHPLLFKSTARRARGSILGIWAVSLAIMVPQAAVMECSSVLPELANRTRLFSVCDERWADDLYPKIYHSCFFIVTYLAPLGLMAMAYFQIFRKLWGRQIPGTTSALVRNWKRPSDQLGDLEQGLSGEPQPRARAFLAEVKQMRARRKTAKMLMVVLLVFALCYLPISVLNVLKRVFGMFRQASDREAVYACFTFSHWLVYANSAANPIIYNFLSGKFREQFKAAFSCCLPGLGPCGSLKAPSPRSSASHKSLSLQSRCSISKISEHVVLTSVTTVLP", "chain of UniProt O75469 (whole entry, looked up)": "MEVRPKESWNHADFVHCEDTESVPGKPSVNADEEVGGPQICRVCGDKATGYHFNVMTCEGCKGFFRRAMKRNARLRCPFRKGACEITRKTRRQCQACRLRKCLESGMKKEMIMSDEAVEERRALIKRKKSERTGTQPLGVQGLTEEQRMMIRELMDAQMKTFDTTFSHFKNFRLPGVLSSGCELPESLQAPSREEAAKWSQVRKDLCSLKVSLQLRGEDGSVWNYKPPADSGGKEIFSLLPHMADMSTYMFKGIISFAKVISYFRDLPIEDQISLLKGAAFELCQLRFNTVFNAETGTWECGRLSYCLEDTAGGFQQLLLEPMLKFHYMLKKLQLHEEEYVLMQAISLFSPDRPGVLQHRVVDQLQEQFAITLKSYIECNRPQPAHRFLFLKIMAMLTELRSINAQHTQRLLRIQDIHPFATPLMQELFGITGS", "chain of UniProt Q7TMS5 (whole entry, looked up)": "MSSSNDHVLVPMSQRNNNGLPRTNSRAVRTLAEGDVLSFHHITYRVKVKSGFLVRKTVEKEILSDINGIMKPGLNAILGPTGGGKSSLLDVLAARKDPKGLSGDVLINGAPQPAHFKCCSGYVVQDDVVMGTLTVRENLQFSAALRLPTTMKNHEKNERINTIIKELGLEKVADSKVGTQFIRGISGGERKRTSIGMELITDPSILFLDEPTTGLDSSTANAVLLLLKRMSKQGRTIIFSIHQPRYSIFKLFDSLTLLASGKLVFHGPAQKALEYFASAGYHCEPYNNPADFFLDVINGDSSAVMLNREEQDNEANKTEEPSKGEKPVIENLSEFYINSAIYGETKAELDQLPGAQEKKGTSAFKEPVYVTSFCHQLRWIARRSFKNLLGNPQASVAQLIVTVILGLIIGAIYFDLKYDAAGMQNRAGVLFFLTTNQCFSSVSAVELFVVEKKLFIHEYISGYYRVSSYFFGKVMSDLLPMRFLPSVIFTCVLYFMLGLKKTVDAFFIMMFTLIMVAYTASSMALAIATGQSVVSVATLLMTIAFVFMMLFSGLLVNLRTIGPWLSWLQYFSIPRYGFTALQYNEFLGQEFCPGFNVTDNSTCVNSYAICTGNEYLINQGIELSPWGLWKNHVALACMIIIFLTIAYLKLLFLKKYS"}
{"Molecule": "C=C(C[C@H](N)C(=O)O)C(=O)Nc1ccc(F)cc1", "tested on": "MCF7", "test": "necrosis", "conditions": "24 h", "endpoint": "EC50", "value": "158 µM"}
{"Molecule": "O=C(NO)c1ccc(Cn2cc(Cn3cnc4ccc(I)cc4c3=O)nn2)cc1", "tested on": "MRC5", "test": "cell growth or viability, MTT", "conditions": "48 h", "endpoint": "IC50", "value": "9.2 µM"}
{"Molecule": "CC(C)[C@H](NC(=O)[C@@H]1CCCN1C(=O)[C@H](CCCNC(=N)N)NC(=O)[C@H](CS)NC(=O)[C@H](Cc1c[nH]c2ccccc12)NC(=O)[C@H](CCCNC(=N)N)NC(=O)[C@@H](Cc1ccccc1)NC(=O)[C@H](Cc1c[nH]cn1)NC(=O)[C@H](CCC(=O)O)NC(=O)[C@H](CS)NC(=O)[C@H](CS)NC(=O)[C@H](CCCCN)NC(=O)[C@@H]1CC(=O)N[C@@H](CCCNC(=N)N)C(=O)N[C@@H](C)C(=O)N[C@@H](CC(=O)O)C(=O)N[C@H](Cc2ccc(O)cc2)C(=O)N1)C(N)=O [technetium-99m labelled]", "test system": "C57 mice, liver", "conditions": "intravenous, 0.037 MBq, 24 h", "endpoint": "tissue uptake", "value": "1.25 ± 0.2 %ID/g"}
{"Molecule": "Cc1nc2cccc(OCC(C)(C)C(=O)NC(C)C)c2c(N)c1C(=O)O", "test system": "female Sprague-Dawley rat, plasma", "conditions": "oral food admix, 30 mg/kg/day, day 7, 90-day dietary study", "endpoint": "AUC(0-24 h)", "value": "105 ng·h/mL"}
{"Molecule": "O=C(c1nc2ccccc2[nH]1)[C@H]1[C@H](c2ccco2)[C@H]2CCCN2[C@@]12c1ccccc1-c1nc3ccccc3nc12", "tested on": "WI-38 lung fibroblasts", "test": "cytotoxicity, MTT", "test system": "medium with 10% FBS", "conditions": "72 h, dose at 100% viability", "endpoint": "EC100", "value": "0.234 ± 0.006 µM"}
{"Molecule": "O=[N+]([O-])c1ccc(-n2nc(-c3cccs3)sc2=NN=Cc2cn(-c3ccccc3)nc2-c2ccccc2)cc1", "tested on": "Vero and HepG2", "test": "cytotoxicity", "scale": "baseline: CC50 Vero over IC50 HepG2", "endpoint": "selectivity index", "value": 90.4}
{"Molecule": "COc1cc2c(cc1OC)C(Cc1ccc(N)cc1)N(CC(=O)NCc1ccccc1)CC2 (stereo not shown)", "tested on": "HCRTR1", "test": "calcium signal, antagonist, fluorescence", "endpoint": "Kb", "value": "> 10 µM"}
{"Molecule": "Cc1ccc(Nc2nccc(N(C)c3ccc4c(C)n(C)nc4c3)n2)cc1S(N)(=O)=O", "tested on": "Broad substrate specificity ATP-binding cassette transporter ABCG2 (Mus musculus, UniProt Q7TMS5)", "test": "bidirectional transport", "test system": "MDCK-Bcrp1 (murine Bcrp1)", "conditions": "5 µM, 240 min, together with: canertinib", "endpoint": "Papp B-A", "value": "5.36 ± 0.05 ×10⁻⁶ cm/s"}
{"Molecule": "C=C(C[C@H](N)C(=O)O)C(=O)Nc1ccc(Cl)cc1", "tested on": "MCF7", "test": "necrosis", "conditions": "24 h", "endpoint": "EC50", "value": "204 µM"}
{"Molecule": "Fluo-4", "tested on": "HeLa", "test": "flow cytometry", "conditions": "10 µM", "scale": "baseline: charge-neutral linear analogue", "endpoint": "cellular uptake", "value": "16 fold"}
{"Molecule": "CCOC(=O)c1c(N)csc1-c1cn(-c2ccccc2)nc1-c1ccc(C)cc1", "tested on": "Acinetobacter baumannii", "test": "broth microdilution", "test system": "clinical urinary isolate", "conditions": "compound gamma-irradiated 15 kGy", "endpoint": "MIC", "value": "0.124 ± 0.3 µg/mL"}
{"Molecule": "COc1cccc2c1C(=O)c1c(O)c3c(c(O)c1C2=O)C[C@@](O)(C(=O)CO)C[C@@H]3O[C@H]1C[C@H](N)[C@H](O)[C@H](C)O1", "tested on": "C2C12 cells", "test": "H2DCFDA flow cytometry", "conditions": "0.5 mM, 72 h", "scale": "baseline: control", "endpoint": "ROS level", "value": "1.09 fold"}
{"Molecule": "O=[N+]([O-])c1ccc(-n2nc(-c3cccs3)sc2=NN=C2CCCc3ccccc32)cc1", "tested on": "Vero and HepG2", "test": "cytotoxicity", "scale": "baseline: CC50 Vero over IC50 HepG2", "endpoint": "selectivity index", "value": 53}
{"Molecule": "Cc1ccc2c(=O)n(Cc3cn(Cc4ccc(/C=C/C(=O)NO)cc4)nn3)cnc2c1", "tested on": "MRC5", "test": "cell growth or viability, MTT", "conditions": "48 h", "endpoint": "IC50", "value": "48.1 µM"}
{"Molecule": "C=C(C[C@H](N)C(=O)O)C(=O)Nc1ccccc1", "tested on": "MCF7", "test": "necrosis", "conditions": "24 h", "endpoint": "EC50", "value": "> 316 µM"}
{"Molecule": "CC(=NN=c1sc(-c2cccs2)nn1-c1ccc([N+](=O)[O-])cc1)c1ccccc1", "tested on": "Vero and A549", "test": "cytotoxicity", "scale": "baseline: CC50 Vero over IC50 A549", "endpoint": "selectivity index", "value": 96.4}
{"Molecule": "Oc1cc(O)c2c(c1)O[C@H](c1cc(O)c(O)c(O)c1)[C@H](O)C2", "tested on": "Caco-2 TC7", "test system": "PBS", "conditions": "concentration not given, 3 h, pH 5, 37 °C", "scale": "baseline: dose", "endpoint": "cellular accumulation", "value": "0.55 ± 0.07%"}
{"Molecule": "COc1cc2c(cc1OC)C(C(C)c1ccccc1)N(CC(=O)NCc1ccccc1)CC2 (stereo not shown)", "tested on": "HCRTR1", "test": "calcium signal, antagonist, fluorescence", "endpoint": "Kb", "value": "> 10 µM"}
{"Molecule": "salmon calcitonin", "tested on": "Calu-3 monolayer, air-liquid interface", "conditions": "1 mg/mL apical, 3 h, pH 7.4, 37 °C, with or without HTCC", "endpoint": "compound share in apical compartment", "value": "100 ± 6.11%"}
{"Molecule": "O=C(c1nc2ccccc2[nH]1)[C@H]1[C@H](c2ccccc2)[C@H]2CCCN2[C@@]12c1ccccc1-c1nc3ccccc3nc12", "tested on": "WI-38 lung fibroblasts", "test": "cytotoxicity, MTT", "test system": "medium with 10% FBS", "conditions": "72 h, dose at 100% viability", "endpoint": "EC100", "value": "0.086 ± 0.003 µM"}
{"Molecule": "O=C(/C=C/C=C/c1ccc2c(c1)OCO2)N1CCCCC1", "tested on": "Nuclear receptor subfamily 1 group I member 2 (NR1I2, Homo sapiens, UniProt O75469)", "test": "MDR1 promoter reporter, activator, luciferase reporter", "test system": "HepG2, PXR-transfected", "conditions": "24 h, 1% charcoal-stripped FBS", "endpoint": "EC50", "value": "2.55 µM"}
{"Molecule": "CCCC[C@H](NC(C)=O)C(=O)N[C@H]1CCC(=O)NC[C@@H](C(=O)N[C@@H](Cc2c[nH]c3ccccc23)C(N)=O)NC(=O)[C@H](CCCNC(=N)N)NC(=O)[C@@H](Cc2ccccc2)NC(=O)[C@H](Cc2c[nH]cn2)NC1=O", "test system": "CD Sprague Dawley rat, female, plasma", "conditions": "subcutaneous, 5.0 mg/kg daily, day 1", "endpoint": "half-life", "value": "5.91 h"}
{"Molecule": "Cc1ccc(C=NN=c2sc(-c3cccs3)nn2-c2ccc([N+](=O)[O-])cc2)cc1", "tested on": "Vero and HepG2", "test": "cytotoxicity", "scale": "baseline: CC50 Vero over IC50 HepG2", "endpoint": "selectivity index", "value": 132}
{"Molecule": "O=C(O)P(=O)(O)O", "tested on": "HepG2-NTCP", "test": "viability", "endpoint": "CC50", "value": "> 25 µM"}
{"Molecule": "COc1cccc2c1C(=O)c1c(O)c3c(c(O)c1C2=O)C[C@@](O)(C(=O)CO)C[C@@H]3O[C@H]1C[C@H](N)[C@H](O)[C@H](C)O1", "tested on": "WI-38 cells", "test": "cell viability, MTT", "conditions": "72 h", "endpoint": "maximum non-toxic concentration", "value": "11.5 ± 0.5 nM"}
{"note": "Some of these lines once more:"}
{"Molecule": "COc1cccc2c1C(=O)c1c(O)c3c(c(O)c1C2=O)C[C@@](O)(C(=O)CO)C[C@@H]3O[C@H]1C[C@H](N)[C@H](O)[C@H](C)O1", "tested on": "C2C12 cells", "test": "H2DCFDA flow cytometry", "conditions": "0.5 mM, 72 h", "scale": "baseline: control", "endpoint": "ROS level", "value": "1.09 fold"}
{"Molecule": "C=C(C[C@H](N)C(=O)O)C(=O)Nc1ccccc1", "tested on": "MCF7", "test": "necrosis", "conditions": "24 h", "endpoint": "EC50", "value": "> 316 µM"}
{"Molecule": "salmon calcitonin", "tested on": "Calu-3 monolayer, air-liquid interface", "conditions": "1 mg/mL apical, 3 h, pH 7.4, 37 °C, with or without HTCC", "endpoint": "compound share in apical compartment", "value": "100 ± 6.11%"}
